Results of several laboratories.
Numbered parts are unrelated; each lists some results of a single study. Changes are numbered by the printed parent chain.

Set 1
Target: Interferon regulatory factor 3, full length, phosphomimetic (IRF3, Homo sapiens, UniProt Q14653, residues 1-427, S386D/S396D/S398D/S402D/T404D/S405D)
Technique: protein-binding microarray
Form: double-stranded DNA, one strand shown
Sample: in vitro
Concentration: 2540 nM top
Setting: 60-bp whole probe
Together with: salmon DNA 0.4 mg/ml
Baseline: random background probes
Direction: higher = stronger binding
Shared flanks, not repeated: GCCTAGCAC … GTCTTGATTCGCTTGACGCTGCTG
Construct (chain): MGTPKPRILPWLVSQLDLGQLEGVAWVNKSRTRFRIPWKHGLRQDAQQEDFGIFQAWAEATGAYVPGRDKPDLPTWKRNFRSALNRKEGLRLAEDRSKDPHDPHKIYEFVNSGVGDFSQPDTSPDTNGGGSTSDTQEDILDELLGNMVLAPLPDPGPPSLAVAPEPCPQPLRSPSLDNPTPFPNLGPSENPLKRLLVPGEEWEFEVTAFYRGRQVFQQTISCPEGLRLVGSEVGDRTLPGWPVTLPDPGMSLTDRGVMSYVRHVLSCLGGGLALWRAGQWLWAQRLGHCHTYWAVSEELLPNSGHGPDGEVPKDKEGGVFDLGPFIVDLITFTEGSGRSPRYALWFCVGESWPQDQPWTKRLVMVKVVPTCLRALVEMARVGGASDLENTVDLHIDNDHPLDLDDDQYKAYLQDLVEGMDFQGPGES
For `TTAGGACTGGGGTATCTGTTAGTGCTA`, “fitted relative affinity” read -0.731 z-score.
`GACGGTTTCGGTCTCGGAACGTGCTAG` — result for “fitted relative affinity”: 8.3 z-score.
`TCATGTCTCTGTCCCTGACTGTGCTAG`: “fitted relative affinity” 0.199 z-score.
Under “fitted relative affinity”, `GACGAACTGAGACTGGAGGCGTGCTAG` is recorded as -0.483 z-score.
Under “fitted relative affinity”, `TGAGAACTGAGTCTCGATTAGTGCTAG` is recorded as -0.463 z-score.
`GACGGTTTCGGTATCGGGAGGTGCTAG` — result for “fitted relative affinity”: 8.46 z-score.
`CTCATTCTCTGTTTATGTCTGTGCTAG` — result for “fitted relative affinity”: 2.52 z-score.
Under “fitted relative affinity”, `TTAGGTTCCCTTTTGCTTTAGTGCTAG` is recorded as 6.95 z-score.

Set 2
Target: inorganic phosphate, free oxyanion
Technique: microfluidic competitive inhibition
Sample: in vitro, cell-free expressed
Concentration: not given
Setting: derived from inhibition constants, unchanged parent 615000 nM
Direction: lower = stronger binding
Starting sequence: PafA, mature enzyme, eGFP fusion (Elizabethkingia meningoseptica, UniProt Q9KJX5); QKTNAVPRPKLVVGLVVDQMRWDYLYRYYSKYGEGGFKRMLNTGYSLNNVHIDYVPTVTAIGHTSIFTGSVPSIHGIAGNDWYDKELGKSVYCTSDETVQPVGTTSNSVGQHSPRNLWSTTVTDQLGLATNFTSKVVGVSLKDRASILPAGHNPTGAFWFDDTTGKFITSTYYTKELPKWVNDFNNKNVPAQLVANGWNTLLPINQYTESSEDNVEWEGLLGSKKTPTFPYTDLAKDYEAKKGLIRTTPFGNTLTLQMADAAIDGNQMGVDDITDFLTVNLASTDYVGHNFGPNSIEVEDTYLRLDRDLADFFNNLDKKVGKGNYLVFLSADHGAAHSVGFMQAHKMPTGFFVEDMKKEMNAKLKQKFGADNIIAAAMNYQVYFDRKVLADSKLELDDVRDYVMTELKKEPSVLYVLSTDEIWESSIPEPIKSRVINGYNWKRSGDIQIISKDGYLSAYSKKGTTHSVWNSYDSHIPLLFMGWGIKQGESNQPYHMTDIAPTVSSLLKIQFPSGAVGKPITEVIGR
`T497G`: “phosphate dissociation constant” 515 µM.
`T253V` — result for “phosphate dissociation constant”: 733 µM.
`N182V`: “phosphate dissociation constant” 657 µM.

Set 3
Variant: V70C
Target: ABI1, truncated, D143A, DHFR fusion (Arabidopsis thaliana)
Technique: DHFR PCA, deep sequencing
Sample: yeast
Setting: methotrexate growth selection, single substitutions
Baseline: wild-type fitted maximum
Direction: higher = stronger binding
Starting sequence: PYL1, truncated, DHFR fusion (Arabidopsis thaliana); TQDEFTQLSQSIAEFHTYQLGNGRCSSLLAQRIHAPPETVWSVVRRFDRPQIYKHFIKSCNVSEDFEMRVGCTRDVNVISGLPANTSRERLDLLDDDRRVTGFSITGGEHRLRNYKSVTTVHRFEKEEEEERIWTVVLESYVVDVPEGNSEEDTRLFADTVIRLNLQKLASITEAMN; partner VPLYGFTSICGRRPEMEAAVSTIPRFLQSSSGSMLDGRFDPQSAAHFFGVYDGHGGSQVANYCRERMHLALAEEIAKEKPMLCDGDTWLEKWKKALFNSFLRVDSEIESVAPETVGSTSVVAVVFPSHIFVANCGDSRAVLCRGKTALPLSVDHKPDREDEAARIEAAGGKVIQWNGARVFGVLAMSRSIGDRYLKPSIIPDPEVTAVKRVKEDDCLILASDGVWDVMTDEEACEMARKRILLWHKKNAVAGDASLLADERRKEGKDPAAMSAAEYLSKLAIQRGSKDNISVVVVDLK
For together with: (+)-ABA 0.11 µM: “relative binding score” read -1.29%.
together with: (+)-ABA 58 µM — “relative binding score”: 67.9%.
The “relative binding score” was 26% (together with: (+)-ABA 4.8 µM).
The “relative binding score” was 90% (together with: (+)-ABA 200 µM).
together with: (+)-ABA 0.39 µM — “relative binding score”: -3.33%.
together with: (+)-ABA 0 µM — “relative binding score”: 3.61%.

Other studies, line by line
Target: CCND1, cyclin fold, Cln2 fusion (human)
Technique: yeast growth competition, sequencing
Sample: yeast
Setting: strong parent motif
Baseline: not given
Direction: higher = stronger binding
Starting sequence: viral docking peptide; KGVKRKLFAEDSS; partner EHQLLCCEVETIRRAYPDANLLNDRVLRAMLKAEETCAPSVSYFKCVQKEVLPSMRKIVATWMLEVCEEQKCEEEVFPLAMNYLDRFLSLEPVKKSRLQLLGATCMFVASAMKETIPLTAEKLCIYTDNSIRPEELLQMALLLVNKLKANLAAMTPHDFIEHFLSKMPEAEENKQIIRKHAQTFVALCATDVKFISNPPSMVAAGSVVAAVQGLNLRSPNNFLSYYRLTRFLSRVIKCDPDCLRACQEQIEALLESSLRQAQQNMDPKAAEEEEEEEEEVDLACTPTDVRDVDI
Under “normalised enrichment score”, `A9T` is recorded as 1.38.
`S12V`: “normalised enrichment score” 1.46.
